Assay results collected from several papers.
Each numbered part is a random draw from the data of one study; scales do not carry over between parts.

Set 1
Target: Interferon regulatory factor 7, full length, phosphomimetic (IRF7, Homo sapiens, UniProt Q92985, residues 1-503, S471D/S472D/S475D/S476D/S477D/S483D/S484D/S487D)
Method: protein-binding microarray
Form: double-stranded DNA, one strand shown
Matrix: in vitro
Tested at: 2200 nM top
Notes: 60-bp whole probe
Added: salmon DNA 0.4 mg/ml
Reference: random background probes
Direction: higher = stronger binding
Shared flanks, not repeated: GCCTAGCAC … GTGCTAGGTCTTGATTCGCTTGACGCTGCTG
Residues (chain): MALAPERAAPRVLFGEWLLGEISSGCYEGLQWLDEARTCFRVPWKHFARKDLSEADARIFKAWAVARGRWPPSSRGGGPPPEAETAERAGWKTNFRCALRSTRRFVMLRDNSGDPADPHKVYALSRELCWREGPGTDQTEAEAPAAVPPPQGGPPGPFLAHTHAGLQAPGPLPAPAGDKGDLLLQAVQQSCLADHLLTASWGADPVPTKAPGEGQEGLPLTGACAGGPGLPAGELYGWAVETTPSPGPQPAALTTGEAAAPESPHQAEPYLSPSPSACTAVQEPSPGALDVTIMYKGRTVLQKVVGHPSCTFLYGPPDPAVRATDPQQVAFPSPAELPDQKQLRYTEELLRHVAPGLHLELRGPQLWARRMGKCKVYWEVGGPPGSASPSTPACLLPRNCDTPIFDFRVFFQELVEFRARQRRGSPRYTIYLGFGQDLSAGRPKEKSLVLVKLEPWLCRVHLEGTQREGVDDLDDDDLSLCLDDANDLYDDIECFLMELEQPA
Under “fitted relative affinity”, `TTAGATCTCAGACTGAATTA` is recorded as -0.303 z-score.
`AACCATTTTGGTTTTCCTTA` — result for “fitted relative affinity”: 2.2 z-score.
`TCAGTTTCCTCTTTCACACT`: “fitted relative affinity” 5.92 z-score.
For `GACGATATCAGTCTCGAGAG`, “fitted relative affinity” read -0.137 z-score.
For `TTTTCTCTGGTTCTTGCTTG`, “fitted relative affinity” read 2.33 z-score.
`TTAGAGATCAGTATCGATTA` — result for “fitted relative affinity”: -0.0859 z-score.

Set 2
Target: RNA binding protein fox-1 homolog 2, RRM domain, GST-SBP tag (RBFOX2, Homo sapiens, UniProt O43251-10, residues 100-194)
Method: RNA Bind-n-Seq
Form: RNA
Matrix: in vitro
Tested at: 365 nM
Notes: natural RNA segment, single round, ends assumed
Reference: no-protein control
Direction: higher = stronger binding
Target sequence (chain): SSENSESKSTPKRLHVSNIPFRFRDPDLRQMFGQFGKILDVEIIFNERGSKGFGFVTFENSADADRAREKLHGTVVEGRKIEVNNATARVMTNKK
Under “RBNS enrichment (R)”, `GGGAGUUCUACAGUCCGACGAUCCUGCACAUAAGUAAAUGUCUUCACGUCAGUGCGUCCGUGGAAAUUGUGAUCUGUUGUAAUAUCAGUUACAGUGGCAGUAUUGAGAAUAAGAAAUAGUUUAACAGGAAAAAUGGAAUUCUCGGGUGCCAA` is recorded as 0.306.
`GGGAGUUCUACAGUCCGACGAUCUUCUUUCAAAUCUGAGUGUUGCCUGCUGAACUCGGAGGGGAGUUUGGAGAAAUUUUAGACAGCAGCUCUGUGUUCUUUUUUUGCCGCAGCCAAUAAGAUAAUAGCAGAAUUGGAAUUCUCGGGUGCCAA` — result for “RBNS enrichment (R)”: 3.32.
Under “RBNS enrichment (R)”, `GGGAGUUCUACAGUCCGACGAUCUGCUGUCCUGGUGGCUGGGCCCAGCAGGGGCCCUCACUCUUGAAGUCCAGGACUGGGUCUGACCUGGUGGGAGCACCUGCCAGAGGAUGCUCUUUCCCAGGACGGAUGGGUGGAAUUCUCGGGUGCCAA` is recorded as 0.344.

Set 3
Target: Prothrombin, mature alpha-thrombin (F2, Homo sapiens, UniProt P00734)
Method: aptamer microarray, sandwich
Form: DNA with 2'F-ANA
Matrix: in vitro
Tested at: 200 nM
Notes: whole 15-mer aptamer, many near background
Added: Cy3 exosite-II aptamer, 400 nM
Direction: higher = stronger binding
For `GGTTGGTGTGGTTGG (2'F-ANA at 2 3 5 7 8 9 12)`, “mean fluorescence intensity” read 259 a.u.
For `GGTTGGTGTGGTTGG (2'F-ANA at 3 5 7 8 9 10 12 13)`, “mean fluorescence intensity” read 80.5 a.u.
Under “mean fluorescence intensity”, `GGTTGGTGTGGTTGG (2'F-ANA at 1 3 4 6 7 8 9 11)` is recorded as 174 a.u.
`GGTTGGTGTGGTTGG (2'F-ANA at 2 3 6 11 12)` — result for “mean fluorescence intensity”: 841 a.u.

Single results of other studies
The fold induction of `PhoQ, residues 284 288 289 292 302 303 SASVAL` is reported as 5.44 (PhoP, residues 12 14 15 18 19 DLLYY (Escherichia coli, UniProt P23836); Sort-seq, measured: YFP reporter; E. coli; PhoQ-PhoP variant library, added: 10 µM Mg2+; reference: high Mg2+ state, higher = stronger signaling).

Repeated from above (set 1):
`AACCATTTTGGTTTTCCTTA` — result for “fitted relative affinity”: 2.2 z-score.
